Measured values collected from several papers.
Each line is one published result; not all experiments were run side by side.
Target: Mitogen-activated protein kinase kinase kinase 3 (MAP3K3, Homo sapiens, UniProt Q99759)

| Compound | test | system | setting | how to read | quantity | result |
| --- | --- | --- | --- | --- | --- | --- |
| C=CC(=O)N1Cc2nc(-c3cc(-c4cc(Cl)cnc4Cl)c(F)cc3F)n(-c3ccncn3)c2C1 | cell-free assay, inhibitor | – | 1 µM | – | inhibition | 5% |
| CNC(=O)C[C@H](Cc1ccc(C#N)cc1)NC(=O)c1cc(-c2ccc(CN[C@H](C)c3ccc(C)cc3)o2)ccc1Cl | enzyme activity, inhibitor | – | 1 µM | – | activity vs control | 98% |
| C=CC(=O)N1CCCC(n2c(=O)c3ncccc3n(Cc3ccc(Oc4ccccc4)cc3)c2=O)C1 (stereo not shown) | cell-free assay, competition with immobilised ligand | – | 1 µM | – | remaining binding | 91% |
| NC(=O)C[C@H]1CCc2sc3ncnc(O[C@H]4CC[C@H](N5CCOCC5)CC4)c3c21 | enzyme activity, inhibitor | – | 10 µM | – | inhibition | -4% |
| Nc1ncc(-c2cc(-c3cnn(CC(F)(F)F)c3)ncc2F)nc1C(=O)NC1CNCC(F)C1 (stereo not shown) | enzyme activity | – | 1 µM | reference: DMSO control | remaining activity | 96.8% |
| Cc1ccc(-c2c(/C=C(\C#N)C(=O)NC(C)C)n(CCCO)c3ncnc(N)c23)cc1 | cell-free assay, competition with immobilised ligand | – | 1 µM | – | remaining binding | 99% |
| C=CC(=O)Nc1cc(-c2nn(C3CCN(CCNC(=O)[C@H](C)CCC45CC6CC(CC(C6)C4)C5)CC3)c3ncnc(N)c23)ccc1Oc1ccccc1 | inhibitor, KiNativ profiling | biochemical | 2 µM | – | inhibition | 15.4% |
| COc1cc(Nc2nccc(-c3cnn4nc(OC)ccc34)n2)cc(C(F)(F)F)c1 | binding, competition with immobilised ligand | – | 1 µM | – | remaining binding | 82% |
| Cc1cnc2nc1Nc1cccc(c1)COC/C=C/COCc1cc(ccc1OCCN1CCOCC1)N2 | binding | – | 0.1 µM | – | remaining binding | 85% |
| CN1CC[C@@H](COc2cnc(C#N)cc2-c2ccn3nc(NC(=O)C4CC4)cc3c2)C1 | enzyme activity, inhibitor | – | 1 µM | – | inhibition | 2% |
| Cn1cc(-c2cnc3ccc(NC(=O)Nc4ccc5sccc5c4)cc3n2)cn1 | kinase binding, KiNativ profiling, item: Lys1 peptide | PANC-1 lysate | 2.5 µM | – | inhibition | 3.6% |
| Cc1cc(NC(=O)[C@H](O)c2cc(F)cc(F)c2)ccc1-c1cnc(N)c(C(=O)NC(C)C)c1 | binding, competition with immobilised ligand | – | 0.1 µM | – | remaining binding | 98% |
| CNC(=O)C1CCN(c2cc(C)c(F)cc2NC(=O)c2ccc(-c3cc(O)ccc3C)c(C)c2)CC1 | binding, competition with immobilised ligand | – | 1 µM | – | remaining binding | 100% |

Excerpt of the above:
| Compound | test | system | setting | how to read | quantity | result |
| --- | --- | --- | --- | --- | --- | --- |
| Cc1cc(NC(=O)[C@H](O)c2cc(F)cc(F)c2)ccc1-c1cnc(N)c(C(=O)NC(C)C)c1 | binding, competition with immobilised ligand | – | 0.1 µM | – | remaining binding | 98% |
| Cn1cc(-c2cnc3ccc(NC(=O)Nc4ccc5sccc5c4)cc3n2)cn1 | kinase binding, KiNativ profiling, item: Lys1 peptide | PANC-1 lysate | 2.5 µM | – | inhibition | 3.6% |
